Experimental data of several laboratories.
A part holds a random share of what one study measured.

Set 1
Target: Interferon regulatory factor 3, full length, phosphomimetic (IRF3, Homo sapiens, UniProt Q14653, residues 1-427, S386D/S396D/S398D/S402D/T404D/S405D)
UniProt Q14653, sequence (whole entry, unmodified, looked up): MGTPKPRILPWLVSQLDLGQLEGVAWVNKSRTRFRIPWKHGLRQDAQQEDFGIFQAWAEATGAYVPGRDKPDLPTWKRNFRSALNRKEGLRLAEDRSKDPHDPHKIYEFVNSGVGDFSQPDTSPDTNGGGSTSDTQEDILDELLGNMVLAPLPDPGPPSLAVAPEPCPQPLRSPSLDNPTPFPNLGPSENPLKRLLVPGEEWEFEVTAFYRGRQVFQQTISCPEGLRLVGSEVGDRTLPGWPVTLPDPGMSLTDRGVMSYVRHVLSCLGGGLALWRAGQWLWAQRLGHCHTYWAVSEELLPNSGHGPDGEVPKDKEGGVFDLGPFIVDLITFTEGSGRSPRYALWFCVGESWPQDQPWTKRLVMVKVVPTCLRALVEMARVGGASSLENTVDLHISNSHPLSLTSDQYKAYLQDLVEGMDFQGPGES
Technique: protein-binding microarray
Molecule type: double-stranded DNA, one strand shown
Matrix: in vitro
Tested at: 2540 nM top
Notes: 60-bp whole probe
With: salmon DNA 0.4 mg/ml
Relative to: random background probes
Reading: higher = stronger binding
All sequences stand within: GCCTAGCAC … GTCTTGATTCGCTTGACGCTGCTG
Strand	fitted relative affinity [z-score]
CCAACACTCGGTTTCCAAATGTGCTAG	4.73
TCAAGTTCAGTTCTCTAACTGTGCTAG	1.42
TTAGATTGCAGTCTCGATTAGTGCTAG	0.94
TTAGGTATCGTTTTCGGTTAGTGCTAG	6.02
TTAAGTATCGACTATCGGTTAGTGCTA	0.457
GACGGACTGGGGATCGGGACGTGCTAG	-0.515
GACGGACTGGATATCGGGACGTGCTAG	-0.32
CTCGTTTACATTTTCCAAATGTGCTAG	3.13
ACAAATGGCCAACAAACATTGTGCTAG	-0.11

Set 2
Target: Protein C-ets-1 (ETS1, Homo sapiens, UniProt P14921, residues 1-441, full length assumed)
UniProt P14921, sequence (whole entry, looked up): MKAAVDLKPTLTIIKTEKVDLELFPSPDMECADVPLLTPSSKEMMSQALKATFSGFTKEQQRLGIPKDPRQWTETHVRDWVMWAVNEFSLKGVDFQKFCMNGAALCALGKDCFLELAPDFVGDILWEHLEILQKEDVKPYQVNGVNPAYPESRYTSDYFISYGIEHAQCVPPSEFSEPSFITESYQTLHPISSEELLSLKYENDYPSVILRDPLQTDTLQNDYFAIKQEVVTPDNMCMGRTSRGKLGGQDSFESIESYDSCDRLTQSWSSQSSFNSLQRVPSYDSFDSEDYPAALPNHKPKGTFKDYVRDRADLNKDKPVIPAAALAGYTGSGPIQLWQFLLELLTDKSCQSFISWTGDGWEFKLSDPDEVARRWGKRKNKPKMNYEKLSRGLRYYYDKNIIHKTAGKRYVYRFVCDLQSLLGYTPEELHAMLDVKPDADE
Technique: protein-binding microarray
Molecule type: double-stranded DNA, one strand shown
Matrix: in vitro
Tested at: not given
Notes: k-mer, scored over probes, only values ≥0.25
Reading: higher = stronger binding
Strand	E-score
CCAGGAAG	0.46
GAAGGAAA	0.374
CGGAAACA	0.473
AATGTCCG	0.312
CGGAATAC	0.255
GGATGGTA	0.274
AGGAAACT	0.423
CCGGTACA	0.335

Set 3
Molecule: PhoQ, residues 284 288 289 292 302 303 AAQSYM
Technique: Sort-seq
Measured: YFP reporter
Matrix: E. coli
Notes: PhoQ-PhoP variant library
With: 10 µM Mg2+
Relative to: high Mg2+ state
Reading: higher = stronger signaling
target	fold induction
PhoP, residues 12 14 15 18 19 HHYTI (Escherichia coli, UniProt P23836)	1.09
PhoP, residues 12 14 15 18 19 AYFRS (Escherichia coli, UniProt P23836)	7.95
PhoP, residues 12 14 15 18 19 SFCSL (Escherichia coli, UniProt P23836)	19.8

Set 4
Target: Prothrombin, mature alpha-thrombin (F2, Homo sapiens, UniProt P00734)
Technique: aptamer microarray, sandwich
Molecule type: DNA with 2'F-ANA
Matrix: in vitro
Tested at: 200 nM
Notes: whole 15-mer aptamer, many near background
With: Cy3 exosite-II aptamer, 400 nM
Reading: higher = stronger binding
Strand: GGTTGGTGTGGTTGG
Modification	mean fluorescence intensity
2'F-ANA at 1 2 3 5 6 8 10 11 12 14 15	58.6 a.u.
2'F-ANA at 1 2 3 5 6 7 9 10 11 13 15	61.3 a.u.
2'F-ANA at 2 4 5 8 9 12 13 14	53.4 a.u.
2'F-ANA at 1 2 5 7 8 9 11 13 14 15	50.8 a.u.
2'F-ANA at 1 5 6 7 8 10 11 12 13	52.2 a.u.
2'F-ANA at 1 2 4 6 7 8 9 14	52.4 a.u.

A few entries again (set 3):
target	fold induction
PhoP, residues 12 14 15 18 19 SFCSL (Escherichia coli, UniProt P23836)	19.8
PhoP, residues 12 14 15 18 19 AYFRS (Escherichia coli, UniProt P23836)	7.95
PhoP, residues 12 14 15 18 19 HHYTI (Escherichia coli, UniProt P23836)	1.09
